Experimental data of several laboratories.
Compare with care: the assays were run in different laboratories.
BTK: Tyrosine-protein kinase BTK (BTK, Homo sapiens, UniProt Q06187)

CN1CCN(Cc2ccc(NC(=O)c3cccc(C#Cc4cnc(N)c5ncccc45)c3)cc2C(F)(F)F)CC1 has a remaining binding of 54% (BTK; cell-free assay, competition with immobilised ligand; 0.5 µM).
With CCn1cc(C(=O)O)c(=O)c2c(N)c(F)c(NC3CCCCC3)cc21 the inhibition was -12.3% (BTK; kinase activity; 0.1 µM, with: ATP at Km).
C=CC(=O)N1CCCC(n2c(=O)c3ncccc3n(Cc3ccc(Oc4ccccc4)cc3)c2=O)C1 (stereo not shown) has a remaining binding of 68% (BTK; cell-free assay, competition with immobilised ligand; 1 µM).
For COc1c(Cl)cccc1Nc1c(-c2ccncc2C#C[C@@]2(C)CCCN2C(=O)/C=C/CN(C)C)[nH]c2c1C(=O)NCC2, the remaining binding was 50% (BTK; binding, competition with immobilised ligand; 3 µM).
CNC1C[S+]2CC[S+]3CC[S+](C1)[Ru-4]321([N]=C=S)[n]2c3ccc(OC)cc3c3c4c(c5cc(F)c[n+]1c5c32)C(=O)NC4=O (stereo not shown) has a remaining binding of 98% (BTK; KinomeScan; 0.1 µM; baseline: untreated).
C=CC(=O)Nc1cccc(-c2cnc3[nH]cc(C(=O)NC(C)(C)C)c3n2)c1 gave an inhibition of 29% (BTK; enzyme activity, inhibitor; 0.1 µM).
O=c1c(-c2ccc(Cl)c(CN3CCOCC3)c2)coc2cc(O)ccc12 gave a remaining activity of 96% (BTK; enzyme activity, inhibitor; 1 µM).
With CCN1CCN(Cc2ccc(C(=O)Nc3ccc(C)c(NCc4cnc5[nH]ccc5c4OC)c3)cc2C(F)(F)F)CC1 the remaining binding was 8.8% (BTK; binding, competition with immobilised ligand; 1 µM).
For O=C(Nc1ccc(Oc2ncnc3[nH]cc(-c4ccccc4)c23)c(F)c1)c1c2n(n(-c3cc(F)ccc3F)c1=O)CCCC2, the inhibition was 26% (BTK; enzyme activity, inhibitor; 0.5 µM).
The remaining activity of Cc1cccc(-c2ccc3nc(NC(=O)C4CCOCC4)nn3c2)c1 is reported as 59% (BTK; enzyme activity, Dundee kinase panel; 10 µM).
With COc1ccc(NC(=O)Nc2ccc3c(c2)C(=O)N(C(C)CO)CC(C)C(CN(C)Cc2ccc4c(c2)OCO4)O3)cc1 (stereo not shown) the remaining activity was 98% (BTK; kinase activity, KinaseProfiler; 0.03 µM, species human; baseline: control).
Cc1cnc2nc1Nc1cccc(c1)COC/C=C/COCc1cc(ccc1OCCN1CCOCC1)N2 has a remaining signal of 50% (BTK; cell-free assay; 0.1 µM).
For O=C=[N][Ru-4]123([n]4c5ccc(O)cc5c5c6c(c7cc(F)c[n+]1c7c54)C(=O)NC6=O)[S+]1CC[S+]2CC[S+]3CC1 (stereo not shown), the remaining activity was 112% (Tyrosine-protein kinase BTK (BTK, Homo sapiens, UniProt Q06187, R28H); enzyme activity; 100 nM, human enzyme, with: 10 µM ATP; baseline: untreated).
The remaining binding of CCN1CCN(Cc2ccc(NC(=O)c3ccc(C)c(NC(=O)c4cncc(-c5cccs5)c4)c3)cc2C(F)(F)F)CC1 is reported as 1% (BTK; binding, competition with immobilised ligand; 1 µM).
With CN1CCN(Cc2ccc(-c3ccc(CO[C@H]4CCC[C@@H]4NC(=O)c4cc(-c5cnn(C)c5)cnc4N)cc3)cc2)CC1 the inhibition was 1% (BTK; enzyme activity, inhibitor; 0.1 µM).
The inhibition of Cc1nc2c(F)cc(-c3nc(Nc4ccc(CNC(=O)CCCCCCC(=O)NO)cc4)ncc3F)cc2n1C(C)C is reported as 75% (BTK; enzyme activity, inhibitor; 1 µM).
CC(=O)N1c2ccc(-c3ccc(CNC(=O)c4cn5cc(-c6cnc(N)nc6)nc(N6CCOCC6)c5n4)cc3)cc2CC[C@@H]1C gave a remaining binding of 69% (BTK; KINOMEscan; 10 µM).
The inhibition of [2H]c1cc(C)c(NC(=O)c2cnc(Nc3cc(N4CC[C@H](N)C4)nc(C)n3)s2)c(Cl)c1 is reported as 54% (BTK; enzyme activity, inhibitor, mobility shift; 1 nM).
For Cc1cccc(-c2ccc3nc(NC(=O)C4CCCCC4)nn3c2)c1, the remaining activity was 71% (BTK; enzyme activity, Dundee kinase panel; 10 µM).
With C=C1CCCCCCCCCC(CO)C1=O (stereo not shown) the remaining binding was 91% (BTK; cell-free assay, competition with immobilised ligand; 10 µM).
The remaining binding of Cc1ccc(-c2n[nH]cc2CNC(=O)C2(C#N)CC2)cc1 is reported as 20% (BTK; cell-free assay, competition with immobilised ligand; 10 µM).
CNC(=O)C[C@H](Cc1ccc(C#N)cc1)NC(=O)c1cc(-c2ccc(CN[C@H](C)c3ccc(C)cc3)o2)ccc1Cl: “activity vs control” 98% (BTK; enzyme activity, inhibitor; 1 µM).
Cc1cccc(O[C@H]2CCC[C@@H](C(C)CNCc3ccncc3)C2)c1 (relative stereo) gave an inhibition of -2% (BTK; kinase activity, kinome panel screening; 10 µM).
CN1CCN(c2ccc(Nc3ncc(Cl)c(Nc4ccccc4P(C)(C)=O)n3)cc2Br)CC1 gave an inhibition of 0% (BTK; enzyme activity, inhibitor; 0.1 µM).
The inhibition of NC(=O)[C@@H](O)C[C@H]1CCc2sc3ncnc(O[C@H]4CC[C@H](N5CCOCC5)CC4)c3c21 is reported as 30% (BTK; enzyme activity, inhibitor; 10 µM).

A few entries again:
Cc1cccc(O[C@H]2CCC[C@@H](C(C)CNCc3ccncc3)C2)c1 (relative stereo) gave an inhibition of -2% (BTK; kinase activity, kinome panel screening; 10 µM).
With C=C1CCCCCCCCCC(CO)C1=O (stereo not shown) the remaining binding was 91% (BTK; cell-free assay, competition with immobilised ligand; 10 µM).
The inhibition of Cc1nc2c(F)cc(-c3nc(Nc4ccc(CNC(=O)CCCCCCC(=O)NO)cc4)ncc3F)cc2n1C(C)C is reported as 75% (BTK; enzyme activity, inhibitor; 1 µM).
